Experimental data pooled from the literature.
Compare with care: the assays were run in different laboratories.

SMILES | test | test system | conditions | stability
O=C(NC1CCCCC1)C(c1ccccn1)N(C(=O)CCl)c1cccc(F)c1 (racemic) | HPLC-MS | DPBS | 24 h, 37 °C | unstable
CCC(C(=O)O)C1CCC(C)C(C(C)C(O)C(C)C(=O)C(CC)C2OC3(C=CC(NCc4cn(CSc5ccccc5)nn4)C4(CCC(C)(C5CCC(O)(CC)C(C)O5)O4)O3)C(C)CC2C)O1 (stereo not drawn) | 1H NMR | CD3OD | together with: iron(II) chloride 0.5 equiv | stable
NC(=O)C(c1ccccc1)(c1ccc(F)cc1)c1ccc(OCC[18F])cc1 (stereo not drawn) | – | mouse serum | concentration not given, 120 min, 37 °C | stable
CCOC(=O)/C(C#N)=C/c1cccc(C(N)=O)c1 | – | – | buffer with DTT | stable
CSCOC1C(=O)C2(C)C(OCSC)CC3OCC3(OC(C)=O)C2C(OC(=O)c2ccccc2)C2(O)CC(OC(=O)C(O)C(C=C(C)C)NC(=O)OC(C)(C)C)C(C)=C1C2(C)C (stereo not drawn) | HPLC-MS/MS | rat plasma | storage and freeze-thaw | stable
N[C@@H]1CCCC[C@H]1N.O=C1[O][Pt]2([O]C1=O)[O]C(=O)C(=O)[O]2 | – | 50 mM HCl | 24 h, 37 °C | stable
CN1C(=O)CC[C@H]1c1ccc[n+]([O-])c1 | – | human liver microsome extract | 24 h, 8 °C | ≤ 10 % variation
CCCC(CCC)C(=O)[O][Pt]([NH2])([NH2])([Cl])([Cl])[O]C(=O)C(C)c1ccc(CC(C)C)cc1 (stereo not drawn) | HPLC | phosphate buffer | days, pH 7, 37 °C | stable
[2H]C([2H])([2H])NC(=O)c1ccc(N2C(=S)N(c3ccc(C#N)c(C(F)(F)F)c3)C(=O)C2(C)C)cc1F | – | human plasma | 5352 h, -80 °C, storage -60 to -90 °C, 223 days | stable
CCCC(CCC)C(=O)[O][Pt]([NH2])([NH2])([Cl])([Cl])[O]C(=O)C(Cl)Cl | HPLC | phosphate buffer | days, pH 7, 37 °C | stable
Cc1ccc(S(=O)(=O)Oc2ccc(C(C(N)=O)(c3ccccc3)c3ccc(F)cc3)cc2)cc1 (stereo not drawn) | – | DMF | concentration not given, 10 min, 130 °C, no base | stable
COC(=O)/C=C/C(=O)c1ccc(OC)cc1 | – | extracted plasma sample | 12 h, 4 °C | stable

Some of these lines once more:
SMILES | test | test system | conditions | stability
NC(=O)C(c1ccccc1)(c1ccc(F)cc1)c1ccc(OCC[18F])cc1 (stereo not drawn) | – | mouse serum | concentration not given, 120 min, 37 °C | stable
